Measurements from different studies.
Each numbered part is a random draw from the data of one study; scales do not carry over between parts.

Set 1
Target: RNA binding protein fox-1 homolog 2, RRM domain, GST-SBP tag (RBFOX2, Homo sapiens, UniProt O43251-10, residues 100-194)
Method: RNA Bind-n-Seq
Form: RNA
Matrix: in vitro
Concentration: 365 nM
Setting: natural RNA segment, single round, ends assumed
Baseline: no-protein control
Reading: higher = stronger binding
Construct (chain): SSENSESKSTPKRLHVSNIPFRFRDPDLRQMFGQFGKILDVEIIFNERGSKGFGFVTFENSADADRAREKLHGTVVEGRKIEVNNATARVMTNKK
`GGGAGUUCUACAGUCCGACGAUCGAACUUUCACAAUGCUUUCCUAGGUAGGACCUGGCAGUUUGGCAGUGCCUUCAGUUUAGCAUUGCUAUAAAAUGAACCCUGAAUUAGCGAAACAGUGUAACAUUAUUCUGUGGAAUUCUCGGGUGCCAA`: “RBNS enrichment (R)” 0.24.
`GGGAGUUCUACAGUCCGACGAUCGCUCAUGCCCAUUUUAUUCUUAUAUGUAUGCUACAUACAGUAUGUUGGUUUCCCGAAUAGUGUGCAUUCCAGCUGGAUAGUCUUAGGCAUGAUGAUAAUAAAAUCAAAAGUGGAAUUCUCGGGUGCCAA`: “RBNS enrichment (R)” 0.541.
`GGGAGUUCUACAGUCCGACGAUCUGGAGACAGCUUGGUUCCCUUUCCCUAGCUCCCUGGUGGGUGAAUGCCACCUCCUGAGAUCCUCACCUCUUGGAAUUAAAAUUGUUGGUCACUGGGGAAAGCCUGAGUUUUGGAAUUCUCGGGUGCCAA`: “RBNS enrichment (R)” 0.899.
`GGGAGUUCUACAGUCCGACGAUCAACACAGAAGCAACGAGAAAUGUGACUCUUGUUAUUUUAAACCACAGACGGACUUGGGUUAAGGGAAUGGGGACGACAGCUUUGGUGCUAAGUUAAUCAGAAAUUGCGAGUGGAAUUCUCGGGUGCCAA` — result for “RBNS enrichment (R)”: 0.751.
Under “RBNS enrichment (R)”, `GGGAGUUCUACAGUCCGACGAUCUUUUAAGUUCUUAUGAGGAGGGGAGGGUAAAUAAACCACUGUGCGUCUUGGUGUAAUUUGAAGAUUGCCCCAUCUAGACUAGCAAUCUCUUCAUUAUUCUCUGCUAUAUAUGGAAUUCUCGGGUGCCAA` is recorded as 0.343.
Under “RBNS enrichment (R)”, `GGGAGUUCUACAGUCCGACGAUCGCAGGUGGCAGCUGCAGCCCUCCUGUGCUUGUGUACGCAUGACUGCAUGGACCAGCACCACUGCCUGGCCAUAACUUCAGUGUCUCCUAACUGGGUGUGCUUUAUAGCUCUGGAAUUCUCGGGUGCCAA` is recorded as 4.12.
For `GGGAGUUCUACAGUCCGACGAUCCGGAACUCUCGUGACAUAGGGUCCAACUCUGGCUGCUGCUGAACAUCUGGCUUGAACUUUUUUUGUCCUUCCUGGAAUAGCUUCAGAUCAAUAGGCUUAAUGAAAGAGGUUGGAAUUCUCGGGUGCCAA`, “RBNS enrichment (R)” read 0.27.
`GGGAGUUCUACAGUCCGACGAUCCUAUAUUUUCUGGGACUGGAAGGAAUGAAUGCCCAUGUCCUGUCUACUUCUGUGUCUGUGCUAUGUGGGGGUGCAACUUCUGCCUGGUGGUUUGUGACAUGGCAGAUCAGUGGAAUUCUCGGGUGCCAA`: “RBNS enrichment (R)” 13.6.
`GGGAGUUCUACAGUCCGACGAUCCUCAGGAGGCAGGGUCAGGAGGAUUACAGGUUCAAAGCCAGUCUGGUCUAUAUUAGAAAAAGAAAACUGUCCUUUUGCUAAAGAAAAAUUAAAUGAAUUUUUAAGGCUGAUGGAAUUCUCGGGUGCCAA`: “RBNS enrichment (R)” 0.601.

Set 2
Target: Hepatocyte nuclear factor 3-alpha (Foxa1, Mus musculus, UniProt P35582, residues 1-468, full length assumed)
Method: EMSA with sequencing
Form: double-stranded DNA, one strand shown
Matrix: in vitro
Concentration: 10 and 20 nM
Setting: whole designed probe, mean of two concentrations, ends assumed
Baseline: negative control set to 0
Reading: higher = stronger binding
Construct (chain): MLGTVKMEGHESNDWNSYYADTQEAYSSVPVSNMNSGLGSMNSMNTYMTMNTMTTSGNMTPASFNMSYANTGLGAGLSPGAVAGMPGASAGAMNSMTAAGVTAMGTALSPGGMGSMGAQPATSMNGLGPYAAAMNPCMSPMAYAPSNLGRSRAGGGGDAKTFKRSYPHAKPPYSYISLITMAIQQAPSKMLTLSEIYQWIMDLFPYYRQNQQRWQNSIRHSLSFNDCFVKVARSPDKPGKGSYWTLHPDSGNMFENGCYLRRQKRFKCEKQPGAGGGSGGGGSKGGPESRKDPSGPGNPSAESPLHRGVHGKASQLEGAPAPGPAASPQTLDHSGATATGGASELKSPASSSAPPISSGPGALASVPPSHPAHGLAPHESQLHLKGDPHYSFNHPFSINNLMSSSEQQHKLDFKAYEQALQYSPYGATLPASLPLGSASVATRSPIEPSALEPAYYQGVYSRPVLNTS
For `GTGAGCGGTGCCCATTGATGGGGAACCTAGTTCCAGTCTTAGCATGGCAATTTCTTCCTGCAACACGCTGTTTTCACGCAAGAGATCTTCTTCTTTCTTATGACTAAGAGAAAGCTAAGTAAACAAAGGGAACTTTTAGTTAGCACTCAATAGAATGACATATCATGATTTCTTCTAAAATTAAAGAATGACATTTATATTTGTATAATGAAATAATTCTTTCACTGGGATCGTGGGGAC`, “normalised bound fraction” read 0.546 ratio.
For `GTGAGCGGTGCCCATTGATGGGGAACATTACCTTGTTGAATCTTTCTACAATGTATAAATATATTAAAACATCACATTGTATTCCACTAATACACACAATTATTAGTTGTTGATTAAAAGTAATTTAAGAAAAAGGAGAACAATGTTGAAGGACTATAGTAATCAAAACAGTGTGATACTGGCATAAACATAGACATGTAAATCAATGGCATACAATCATTTCACTGGGATCGTGGGGAC`, “normalised bound fraction” read 0.187 ratio.
Under “normalised bound fraction”, `GTGAGCGGTGCCCATTGATGGGGAACATCTTCCCCCTCTTCCTTGCCCCACCAGCTCACCTACGGGGGTTATTTGCAGATAGGAAAATAAATAAAGCCGGCATTCGTTAACGCAGTTCTGGCGCAAACTGCTGTTTGCTCTGGATCTAACATGGTCCTTTGGCGACGCCAGGCTCCGGGAGAGCAAAGCACCGTGTCAGGGCCATGATCCGGGGTGGCCTTTCACTGGGATCGTGGGGAC` is recorded as 0.346 ratio.
For `GTGAGCGGTGCCCATTGATGGGGAACGTTTTTTTTTTTAAGTTAGTAGTACCTTCTGTATCCTTCAAACATCTAAAGAGAAAAAGCTAATAGATTGTGCAATATTTCCAGAAGGCAAAGTAAACATGCAACAAAAAAGTAAAGTAAAAGATGATCTTATGTTTGAAATGTTTCTGAGCTTTGTTTGATGGTTTCTTGATTGTGTGTGTGAGTGTGTGTGTTTCACTGGGATCGTGGGGAC`, “normalised bound fraction” read 0.325 ratio.

Set 3
Target: RING finger protein unkempt homolog, zinc fingers 1-6, GST-SBP tag (UNK, Homo sapiens, UniProt Q9C0B0, residues 30-357)
Method: RNA Bind-n-Seq
Form: RNA
Matrix: in vitro
Concentration: not given
Setting: RNA with constant flanks, human-mouse chimeric sites, ends assumed
Baseline: input RNA pool
Reading: higher = stronger binding
Target sequence (chain): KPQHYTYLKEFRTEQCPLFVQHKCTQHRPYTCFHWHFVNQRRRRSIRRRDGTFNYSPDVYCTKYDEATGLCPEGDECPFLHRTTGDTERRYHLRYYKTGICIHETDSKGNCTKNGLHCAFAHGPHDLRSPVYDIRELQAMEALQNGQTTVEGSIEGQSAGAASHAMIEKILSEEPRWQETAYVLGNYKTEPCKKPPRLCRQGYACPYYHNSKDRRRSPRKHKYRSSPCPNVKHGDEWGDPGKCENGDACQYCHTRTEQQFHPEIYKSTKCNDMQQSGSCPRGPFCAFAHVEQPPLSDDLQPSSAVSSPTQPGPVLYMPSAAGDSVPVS
`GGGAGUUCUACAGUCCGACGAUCCUCAGAGAUGUGGCAUAUCAGUAUGUGAAAAAGGGGGCUCGUAUAUUUUUGGAAGGGAAAGUGGACUAUGGCGAGUACAUGGAUAAAAAUAAUGUGAGGCGGCAAGCAACAACAAUCAUACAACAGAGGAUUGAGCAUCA` has a bound/input enrichment of 0.504 ratio.
For `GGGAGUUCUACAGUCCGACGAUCGUGCCCUUCUCGCUGCUGCGGAGCCCGAGCUGGGAACCAUUCCGGGACUGGUACCCUGCACACAGCCGCCUCUUCGAUCAAGCUUUCGGGCUGCCCCGGCUGCCGGAUGAGUGGUCGCAGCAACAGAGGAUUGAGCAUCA`, the bound/input enrichment was 0.0639 ratio.
For `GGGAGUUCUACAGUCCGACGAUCCACACACUCUUCUGCGGGACCCUCAUCUUGCAGGCCCGGGCCUAUGUGGGACCCCGUGUCCUGGCAGUGGUGACUCGCACAGGGUUCUGCACGGCAAAAGGGGGCCUGGUGAGCUCCAUCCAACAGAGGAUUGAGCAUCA`, the bound/input enrichment was 0.0776 ratio.
`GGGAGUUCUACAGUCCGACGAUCCACACACUCUUCUGCGGGACCCUCAUCCUGCAGGCCCGGGCCUAUGUGGGACCGCACGUCCUGGCAGUGGUGACCCGCACAGGGUUCUGCACGGCAAAAGGGGGCCUGGUGAGCUCCAUCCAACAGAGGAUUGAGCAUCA` has a bound/input enrichment of 0.0997 ratio.
`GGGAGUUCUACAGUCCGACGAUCUAAGUCCUGUGCCAGCACUUCGCUCAUAAAGUUUUAAAUUCAAGAAAAAUAGUGUUUGUUUCCUGAUUAUUGUAUCCAAUACUUUGCCUAGUAUGUAACUCAUGCUUACUGAUAAUAAAACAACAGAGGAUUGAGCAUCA` gave a bound/input enrichment of 1.29 ratio.
With `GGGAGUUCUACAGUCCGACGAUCUCCCAAAUCCAGCAGCUAGAAGGAGCCAAUUGUUUGUCACUCCACACACAGGGAAGGCGAUAACAUUGUACAUUGGUUUACAUUUUUUCCCCCUGUGGAUUUUUCUAGAGGUCAUAGUGCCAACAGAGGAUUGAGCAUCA` the bound/input enrichment was 0.39 ratio.
`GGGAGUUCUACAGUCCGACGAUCCCUGCUCAGAUCACCAUGAAAGUAAUCCAAGGCUUGUAUAGUGGGGUCACCACAGUGGAACUAGAUACCCUGGCUGCUGAGACAGCCGCGACCUUGACCACGAAGCACCCUGACUAUGCCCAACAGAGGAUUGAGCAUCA` gave a bound/input enrichment of 0.174 ratio.
`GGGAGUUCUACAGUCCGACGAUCACCUCCCCCUCCCGCCUCACCCCACCCCCGCUUUUUGGAAAGUUUUUGGCGUUUCUUUUCCUUCCCCAUACAAAGUGGUUUUUACCACCCCCGCAAGGGUCUAUCGAAGGGCUUGACGGACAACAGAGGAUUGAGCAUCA` has a bound/input enrichment of 1.92 ratio.

Set 4
Target: Interferon regulatory factor 7, full length, phosphomimetic (IRF7, Homo sapiens, UniProt Q92985, residues 1-503, S471D/S472D/S475D/S476D/S477D/S483D/S484D/S487D)
Chain of UniProt Q92985 (whole entry, unmodified, looked up): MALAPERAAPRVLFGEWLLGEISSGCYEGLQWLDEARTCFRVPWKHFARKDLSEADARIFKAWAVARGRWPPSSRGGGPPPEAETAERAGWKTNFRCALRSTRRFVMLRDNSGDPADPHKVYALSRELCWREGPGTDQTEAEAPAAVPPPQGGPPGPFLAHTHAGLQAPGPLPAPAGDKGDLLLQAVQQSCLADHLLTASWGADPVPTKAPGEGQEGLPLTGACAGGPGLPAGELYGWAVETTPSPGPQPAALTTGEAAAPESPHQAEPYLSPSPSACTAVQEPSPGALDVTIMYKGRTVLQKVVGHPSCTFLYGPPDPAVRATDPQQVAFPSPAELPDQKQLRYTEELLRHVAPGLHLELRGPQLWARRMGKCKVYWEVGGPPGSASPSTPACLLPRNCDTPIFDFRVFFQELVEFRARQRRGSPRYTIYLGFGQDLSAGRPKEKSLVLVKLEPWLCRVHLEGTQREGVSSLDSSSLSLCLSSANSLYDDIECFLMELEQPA
Method: protein-binding microarray
Form: double-stranded DNA, one strand shown
Matrix: in vitro
Concentration: 2200 nM top
Setting: 60-bp whole probe
Added: salmon DNA 0.4 mg/ml
Baseline: random background probes
Reading: higher = stronger binding
Constant ends, left off below: GCCTAGCAC … GTCTTGATTCGCTTGACGCTGCTG
Under “fitted relative affinity”, `GAGGAACTGAGTATCGAGACGTGCTAG` is recorded as -0.578 z-score.
`GACGATTTCAGACTTGAGACGTGCTAG` — result for “fitted relative affinity”: 0.373 z-score.
`TTATGTATCGGTATCGGTTAGTGCTAG` — result for “fitted relative affinity”: 1.45 z-score.
For `GTCATTATCCTTGTCCCTCCGTGCTAG`, “fitted relative affinity” read 1.79 z-score.
Under “fitted relative affinity”, `GACGGATTGCTTTTCCTGACGTGCTAG` is recorded as 1.05 z-score.
Under “fitted relative affinity”, `TCAAGCTTCTTTTTTATACTGTGCTAG` is recorded as 0.363 z-score.
Under “fitted relative affinity”, `TCATTTCTATGTCTGTTACTGTGCTAG` is recorded as 2.49 z-score.
For `AAAATGATTGGTTGAACATGGTGCTAG`, “fitted relative affinity” read -0.258 z-score.
`TCAGCTGTTTTTCTCACCACGTGCTAG`: “fitted relative affinity” 1.17 z-score.
For `GACGGTATCGGGTTTCGGGATGTGCTA`, “fitted relative affinity” read 2.14 z-score.
Under “fitted relative affinity”, `TTTTTTTTTTTTTTTGGAATGTGCTAG` is recorded as 1.8 z-score.
For `TCAAATCTCAGCCTCCGACTGTGCTAG`, “fitted relative affinity” read 0.19 z-score.
`GACGGACTGGGACTGGGGTCGTGCTAG`: “fitted relative affinity” -0.841 z-score.
Under “fitted relative affinity”, `GACGAACTGAGACTGGAGAGGTGCTAG` is recorded as -0.524 z-score.
Under “fitted relative affinity”, `GACGGACTGGTGACTGGGGACGTGCTA` is recorded as -0.713 z-score.
`GACGGACTGGGTTTCGGAACGTGCTAG` — result for “fitted relative affinity”: 1.58 z-score.
For `TGAGCATACCATATCAGAAAGTGCTAG`, “fitted relative affinity” read 0.0551 z-score.

Excerpt of the above (set 4):
`GACGGACTGGGTTTCGGAACGTGCTAG` — result for “fitted relative affinity”: 1.58 z-score.
For `TGAGCATACCATATCAGAAAGTGCTAG`, “fitted relative affinity” read 0.0551 z-score.
